Experimental data gathered from unrelated publications.
Target: Atypical kinase COQ8B, mitochondrial (COQ8B, Homo sapiens, UniProt Q96D53)

| Compound | test | conditions | scale | endpoint | value |
| --- | --- | --- | --- | --- | --- |
| Cc1cnc2nc1Nc1cccc(c1)COC/C=C/COCc1cc(ccc1OCCN1CCOCC1)N2 | binding | 0.1 µM | – | remaining binding | 85% |
| COc1c(Cl)cccc1Nc1c(-c2ccncc2C#C[C@@]2(C)CCCN2C(=O)/C=C/CN(C)C)[nH]c2c1C(=O)NCC2 | cell-free assay, competition with immobilised ligand | 3 µM | – | remaining binding | 91% |
| Cc1ccc(-c2c(/C=C(\C#N)C(=O)NC(C)C)n(CCCO)c3ncnc(N)c23)cc1 | cell-free assay, competition with immobilised ligand | 1 µM | – | remaining binding | 94% |
| CC(C)=CC1OC(C)(C)C2C=C3C(=O)C(Cl)=CC(O)C3C3C(O)C4OC4C(=O)C132 (stereo not drawn) | cell-free assay, competition with immobilised ligand | 10 µM | – | remaining binding | 89% |
| Nc1ncc2c(n1)-c1c([nH]c3ccc(C4=CCOCC4)cc13)CCC2 | binding, competition with immobilised ligand | 1 µM | – | remaining binding | 67% |
| C=CC(=O)N1CCc2ccc(-n3c(=O)ccc4cnc5ccc(-c6cnn(C)c6)cc5c43)cc21 | KINOMEscan | 1 µM | reference: DMSO control | remaining binding | 100% |
| COc1cc(Nc2nc(C)cc(-c3cnn4nc(OC)ccc34)n2)cc(C(F)(F)F)c1 | kinase binding | 1 µM, ADCK4 | – | percent of control binding | 79% |
| CNC(=O)C1CCN(c2cc(C)c(F)cc2NC(=O)c2ccc(-c3cc(O)ccc3C)c(C)c2)CC1 | binding, competition with immobilised ligand | 1 µM | – | remaining binding | 85% |
| CNC1C[S+]2CC[S+]3CC[S+](C1)[Ru-4]321([N]=C=S)[n]2c3ccc(OC)cc3c3c4c(c5cc(F)c[n+]1c5c32)C(=O)NC4=O (stereo not drawn) | KinomeScan | 0.1 µM | reference: untreated | remaining binding | 96% |
| CCN1CCN(Cc2ccc(C(=O)Nc3ccc(C)c(NCc4cnc5[nH]ccc5c4OC)c3)cc2C(F)(F)F)CC1 | binding, competition with immobilised ligand | 1 µM | – | remaining binding | 100% |
| COc1cc(Nc2nccc(-c3cnn4nc(OC)ccc34)n2)cc(C(F)(F)F)c1 | binding, competition with immobilised ligand | 1 µM | – | remaining binding | 82% |
| C=CC(=O)N1CCCC(n2c(=O)c3ncccc3n(Cc3ccc(Oc4ccccc4)cc3)c2=O)C1 (stereo not drawn) | cell-free assay, competition with immobilised ligand | 1 µM | – | remaining binding | 67% |

Repeated from above:
| Compound | test | conditions | scale | endpoint | value |
| --- | --- | --- | --- | --- | --- |
| Cc1ccc(-c2c(/C=C(\C#N)C(=O)NC(C)C)n(CCCO)c3ncnc(N)c23)cc1 | cell-free assay, competition with immobilised ligand | 1 µM | – | remaining binding | 94% |
| CC(C)=CC1OC(C)(C)C2C=C3C(=O)C(Cl)=CC(O)C3C3C(O)C4OC4C(=O)C132 (stereo not drawn) | cell-free assay, competition with immobilised ligand | 10 µM | – | remaining binding | 89% |
